Experimental data collected from several papers.
Every numbered part comes from another study and shows a few of its results, in no order.
Sequence of UniProt Q9Y3S1 (whole entry, looked up): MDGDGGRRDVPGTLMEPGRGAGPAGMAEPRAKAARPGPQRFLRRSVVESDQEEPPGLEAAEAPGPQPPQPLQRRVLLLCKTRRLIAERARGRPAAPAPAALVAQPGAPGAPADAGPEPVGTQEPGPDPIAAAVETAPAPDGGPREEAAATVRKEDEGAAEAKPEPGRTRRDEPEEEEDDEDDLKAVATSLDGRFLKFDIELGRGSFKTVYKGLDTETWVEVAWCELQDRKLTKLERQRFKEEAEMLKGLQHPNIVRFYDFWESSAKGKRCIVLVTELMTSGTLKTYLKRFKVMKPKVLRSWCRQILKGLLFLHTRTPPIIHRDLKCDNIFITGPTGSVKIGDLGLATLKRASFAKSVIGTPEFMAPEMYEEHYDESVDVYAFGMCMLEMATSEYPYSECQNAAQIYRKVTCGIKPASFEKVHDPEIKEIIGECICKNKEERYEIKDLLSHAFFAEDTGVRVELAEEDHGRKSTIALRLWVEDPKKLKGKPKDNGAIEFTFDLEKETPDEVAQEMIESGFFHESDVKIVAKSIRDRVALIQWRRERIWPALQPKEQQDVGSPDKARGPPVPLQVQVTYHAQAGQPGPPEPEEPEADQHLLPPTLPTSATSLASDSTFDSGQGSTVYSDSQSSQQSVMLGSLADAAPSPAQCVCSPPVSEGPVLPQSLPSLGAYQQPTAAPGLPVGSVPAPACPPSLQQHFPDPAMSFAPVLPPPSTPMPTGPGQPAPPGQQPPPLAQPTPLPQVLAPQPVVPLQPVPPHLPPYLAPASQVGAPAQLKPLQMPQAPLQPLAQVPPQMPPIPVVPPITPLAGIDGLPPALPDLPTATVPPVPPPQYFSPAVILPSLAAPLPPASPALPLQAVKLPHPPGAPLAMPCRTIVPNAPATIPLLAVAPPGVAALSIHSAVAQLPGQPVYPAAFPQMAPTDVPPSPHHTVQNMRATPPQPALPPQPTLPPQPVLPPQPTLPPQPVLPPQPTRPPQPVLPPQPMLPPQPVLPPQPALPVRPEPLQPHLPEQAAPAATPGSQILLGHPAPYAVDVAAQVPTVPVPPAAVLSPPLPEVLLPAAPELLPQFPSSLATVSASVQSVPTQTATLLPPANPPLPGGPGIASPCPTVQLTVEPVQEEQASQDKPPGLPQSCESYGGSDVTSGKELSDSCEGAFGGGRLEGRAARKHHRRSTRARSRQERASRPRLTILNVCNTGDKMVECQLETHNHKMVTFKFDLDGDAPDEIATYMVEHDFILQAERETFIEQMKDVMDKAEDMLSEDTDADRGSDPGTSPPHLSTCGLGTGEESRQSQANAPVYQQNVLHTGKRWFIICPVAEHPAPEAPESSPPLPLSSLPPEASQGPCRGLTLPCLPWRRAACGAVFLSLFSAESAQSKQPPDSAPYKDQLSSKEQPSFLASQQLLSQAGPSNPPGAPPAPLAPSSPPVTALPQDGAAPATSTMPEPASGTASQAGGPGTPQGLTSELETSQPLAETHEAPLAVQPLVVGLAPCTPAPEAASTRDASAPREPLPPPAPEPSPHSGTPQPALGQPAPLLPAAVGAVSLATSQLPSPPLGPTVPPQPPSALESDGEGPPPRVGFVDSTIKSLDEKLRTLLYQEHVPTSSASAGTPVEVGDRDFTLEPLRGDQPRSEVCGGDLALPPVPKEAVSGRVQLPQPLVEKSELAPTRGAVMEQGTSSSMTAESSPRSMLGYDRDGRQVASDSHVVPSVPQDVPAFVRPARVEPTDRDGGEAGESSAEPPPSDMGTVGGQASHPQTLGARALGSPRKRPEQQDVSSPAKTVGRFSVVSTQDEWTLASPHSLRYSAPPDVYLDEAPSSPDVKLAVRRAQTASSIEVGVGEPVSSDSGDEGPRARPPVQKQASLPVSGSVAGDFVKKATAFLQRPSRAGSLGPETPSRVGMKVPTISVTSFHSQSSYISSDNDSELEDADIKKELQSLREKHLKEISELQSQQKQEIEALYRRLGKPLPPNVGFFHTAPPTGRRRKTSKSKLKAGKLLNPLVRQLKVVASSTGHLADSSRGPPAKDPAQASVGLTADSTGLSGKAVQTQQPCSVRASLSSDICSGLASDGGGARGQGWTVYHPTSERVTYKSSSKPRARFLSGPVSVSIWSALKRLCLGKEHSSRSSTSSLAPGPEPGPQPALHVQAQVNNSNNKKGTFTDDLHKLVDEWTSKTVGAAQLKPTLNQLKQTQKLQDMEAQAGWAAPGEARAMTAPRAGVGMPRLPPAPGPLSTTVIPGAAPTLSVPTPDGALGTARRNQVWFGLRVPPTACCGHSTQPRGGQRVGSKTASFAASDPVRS
Sequence of UniProt Q02779 (whole entry, looked up): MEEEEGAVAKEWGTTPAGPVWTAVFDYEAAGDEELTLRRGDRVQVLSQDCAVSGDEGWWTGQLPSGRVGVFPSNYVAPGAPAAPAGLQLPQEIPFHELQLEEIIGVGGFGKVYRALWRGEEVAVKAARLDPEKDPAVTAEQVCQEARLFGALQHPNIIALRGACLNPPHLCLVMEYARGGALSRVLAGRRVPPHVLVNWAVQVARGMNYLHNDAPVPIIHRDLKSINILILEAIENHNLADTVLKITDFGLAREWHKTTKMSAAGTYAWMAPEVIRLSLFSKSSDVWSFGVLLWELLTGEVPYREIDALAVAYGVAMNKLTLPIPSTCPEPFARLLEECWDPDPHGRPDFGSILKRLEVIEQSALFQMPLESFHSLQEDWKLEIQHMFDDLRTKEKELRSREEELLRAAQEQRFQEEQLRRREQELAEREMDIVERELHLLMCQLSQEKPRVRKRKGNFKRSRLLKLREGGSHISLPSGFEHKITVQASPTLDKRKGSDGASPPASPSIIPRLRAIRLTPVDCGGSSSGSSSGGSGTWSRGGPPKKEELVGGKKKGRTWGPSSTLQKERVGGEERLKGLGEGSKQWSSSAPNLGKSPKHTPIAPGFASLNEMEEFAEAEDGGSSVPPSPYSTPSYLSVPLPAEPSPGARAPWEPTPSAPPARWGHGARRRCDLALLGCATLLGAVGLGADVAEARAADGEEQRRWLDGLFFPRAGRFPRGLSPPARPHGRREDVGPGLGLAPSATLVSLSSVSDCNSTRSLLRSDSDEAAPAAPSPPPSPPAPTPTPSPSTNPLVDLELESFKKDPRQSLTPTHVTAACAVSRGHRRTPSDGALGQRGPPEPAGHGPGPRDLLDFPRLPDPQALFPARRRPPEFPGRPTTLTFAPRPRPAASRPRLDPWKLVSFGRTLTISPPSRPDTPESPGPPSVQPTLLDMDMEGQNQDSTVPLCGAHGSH
Sequence of UniProt P30530 (whole entry, looked up): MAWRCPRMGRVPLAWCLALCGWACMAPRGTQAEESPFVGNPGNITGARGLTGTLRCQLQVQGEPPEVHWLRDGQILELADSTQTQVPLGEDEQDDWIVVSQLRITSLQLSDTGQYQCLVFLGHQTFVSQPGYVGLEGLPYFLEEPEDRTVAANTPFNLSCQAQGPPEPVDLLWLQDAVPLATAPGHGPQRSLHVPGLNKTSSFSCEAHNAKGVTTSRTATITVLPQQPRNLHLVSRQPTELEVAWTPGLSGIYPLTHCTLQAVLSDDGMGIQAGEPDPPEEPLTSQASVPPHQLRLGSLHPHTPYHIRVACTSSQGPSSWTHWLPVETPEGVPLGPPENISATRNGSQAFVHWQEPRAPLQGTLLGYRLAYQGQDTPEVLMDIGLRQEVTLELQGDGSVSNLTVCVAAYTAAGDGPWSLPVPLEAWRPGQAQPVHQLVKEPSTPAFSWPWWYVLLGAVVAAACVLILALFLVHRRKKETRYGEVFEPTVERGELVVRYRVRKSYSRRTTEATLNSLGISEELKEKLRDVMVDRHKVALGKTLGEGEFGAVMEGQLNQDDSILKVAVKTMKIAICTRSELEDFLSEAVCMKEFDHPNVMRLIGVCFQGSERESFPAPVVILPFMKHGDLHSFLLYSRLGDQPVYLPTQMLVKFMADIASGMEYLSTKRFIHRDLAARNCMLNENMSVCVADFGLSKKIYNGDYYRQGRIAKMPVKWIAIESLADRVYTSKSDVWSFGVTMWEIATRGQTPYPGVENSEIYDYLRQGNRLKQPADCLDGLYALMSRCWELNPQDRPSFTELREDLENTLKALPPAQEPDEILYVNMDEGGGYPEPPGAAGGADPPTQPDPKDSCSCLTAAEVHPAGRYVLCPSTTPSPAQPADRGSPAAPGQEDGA
Sequence of UniProt Q6PHR2 (whole entry, looked up): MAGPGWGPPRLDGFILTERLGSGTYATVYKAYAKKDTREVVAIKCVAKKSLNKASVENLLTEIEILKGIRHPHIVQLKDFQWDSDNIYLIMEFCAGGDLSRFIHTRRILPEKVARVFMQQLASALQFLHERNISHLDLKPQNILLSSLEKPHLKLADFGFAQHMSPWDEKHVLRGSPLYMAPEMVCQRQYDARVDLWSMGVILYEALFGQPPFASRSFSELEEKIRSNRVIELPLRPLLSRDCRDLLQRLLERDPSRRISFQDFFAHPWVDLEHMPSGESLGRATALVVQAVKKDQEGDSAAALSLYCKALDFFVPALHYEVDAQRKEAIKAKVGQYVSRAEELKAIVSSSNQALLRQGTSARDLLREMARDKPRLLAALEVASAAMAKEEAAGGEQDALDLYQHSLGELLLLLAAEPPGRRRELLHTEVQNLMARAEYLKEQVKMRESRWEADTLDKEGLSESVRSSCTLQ
Sequence of UniProt P50750 (whole entry, looked up): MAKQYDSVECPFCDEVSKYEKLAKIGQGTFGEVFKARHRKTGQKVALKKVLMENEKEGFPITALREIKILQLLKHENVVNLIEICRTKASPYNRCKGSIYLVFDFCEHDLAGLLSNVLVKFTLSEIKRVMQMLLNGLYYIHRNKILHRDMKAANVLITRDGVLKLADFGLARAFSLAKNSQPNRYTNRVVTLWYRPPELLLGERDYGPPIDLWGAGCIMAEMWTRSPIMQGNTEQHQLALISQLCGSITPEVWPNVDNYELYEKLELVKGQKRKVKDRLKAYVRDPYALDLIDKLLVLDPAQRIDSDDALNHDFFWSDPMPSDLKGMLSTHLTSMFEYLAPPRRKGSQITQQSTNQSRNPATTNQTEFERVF

Set 1
Read-out: AlphaScreen signal
Technique: AlphaScreen counter screen
Medium: His6 peptide without bromodomain
Tested at: 50 µM
Setting: assay interference check
SMILES | inhibition
Cc1cc(Nc2cc(N3CCN(C)CC3)nc(Sc3ccc(NC(=O)C4CC4)cc3)n2)[nH]n1 | 27.2%
Cc1nc(N)sc1-c1csc(Nc2ccc(N)cc2)n1 | 89.7%
O=C1Nc2ccccc2C1=Cc1c(Cl)[nH]c2ccccc12 | 59.6%
Nc1nc(Nc2ccc(Cl)c(Cl)c2)sc1C(=O)c1ccc(F)cc1 | 43.6%
O=C1Nc2ccc(Br)cc2/C1=C/c1cc2c([nH]1)CCCC2 | 51%
CN(C)S(=O)(=O)c1ccc2c(c1)/C(=C/c1cc3c([nH]1)CCCC3)C(=O)N2 | 60.1%
CCOC(=O)C(C)Sc1ccc2nnc(-c3ccc(OC)c(OC)c3)n2n1 (centres unmarked) | 14.6%
O=C1NC(=O)c2c1c1c3ccccc3[nH]c1c1[nH]c3cc(Br)ccc3c21 | 37.8%
CS(=O)(=O)O.Cn1cc(C2=C(c3cn(CCCSC(=N)N)c4ccccc34)C(=O)NC2=O)c2ccccc21 | 96.8%
Cc1ccnc(NC(=O)c2n[nH]c3ccccc23)c1 | 5.9%
O=C(CCCN1CC=C(n2c(=O)[nH]c3ccccc32)CC1)c1ccc(F)cc1 | 33.1%
CC(=O)c1c(C)c2cnc(Nc3ccc(N4CCNCC4)cn3)nc2n(C2CCCC2)c1=O | 39.2%

Set 2
SMILES: O=C(Nc1ccccc1)Nc1cccc(Oc2ccc3nccn3n2)c1
Tested at: 1 µM
target | technique | measured | setting | baseline | remaining binding [%]
MAP3K7 (Homo sapiens, UniProt O43318) | competitive binding panel | TAK1 |  | vehicle | 100
NEK11 (Homo sapiens, UniProt Q8NG66) | competitive binding panel |  |  | vehicle | 100
NEK10 (Homo sapiens, UniProt Q6ZWH5) | competitive binding panel |  |  | vehicle | 100
IRAK1 (Homo sapiens, UniProt P51617) | competitive binding panel |  |  | vehicle | 91
BRSK1 (Homo sapiens, UniProt Q8TDC3) | competitive binding panel |  |  | vehicle | 100
MAPK4 (Homo sapiens, UniProt P31152) | competitive binding panel | ERK4 |  | vehicle | 100
TEC (Homo sapiens, UniProt P42680) | competitive binding panel |  |  | vehicle | 100
MAP3K13 (Homo sapiens, UniProt O43283) | competitive binding |  | LZK |  | 100
NEK5 (Homo sapiens, UniProt Q6P3R8) | competitive binding panel |  |  | vehicle | 100

Set 3
Structure (SMILES): NC(=O)c1ccc(-c2nc(-c3ccc4c(c3)OCCO4)c(-c3ccccn3)[nH]2)cc1
Read-out: enzyme activity
Action: inhibitor
Tested at: 0.5 µM
Baseline: control
target | remaining activity
CSNK2A1 (Homo sapiens, UniProt P68400) | 122%
MAPK12 (Homo sapiens, UniProt P53778) | 102%
KIT (Homo sapiens, UniProt P10721) | 119%
PRKG1 (Homo sapiens, UniProt Q13976) | 95%
PRKCI (Homo sapiens, UniProt P41743) | 102%
MAP4K2 (Homo sapiens, UniProt Q12851) | 92.6%
Cyclin-dependent kinase 9, with cyclin T1 (CDK9, Homo sapiens, UniProt P50750) | 96.8%
LYN (Homo sapiens, UniProt P07948) | 99.9%
BTK (Homo sapiens, UniProt Q06187) | 91.6%
LRRK2 (Homo sapiens, UniProt Q5S007) | 105%
PRKCD (Homo sapiens, UniProt Q05655) | 107%
EPHA5 (Homo sapiens, UniProt P54756) | 89.7%
CSNK1A1 (Homo sapiens, UniProt P48729) | 37.1%
MAP2K6 (Homo sapiens, UniProt P52564) | 107%
MKNK2 (Homo sapiens, UniProt Q9HBH9) | 92.3%
PLK2 (Homo sapiens, UniProt Q9NYY3) | 96.6%
MAP3K10 (Homo sapiens, UniProt Q02779) | 94.4%
NEK4 (Homo sapiens, UniProt P51957) | 98.2%
CHEK1 (Homo sapiens, UniProt O14757) | 167%
MAPK13 (Homo sapiens, UniProt O15264) | 99.5%
WNK2 (Homo sapiens, UniProt Q9Y3S1) | 93.5%
IRAK4 (Homo sapiens, UniProt Q9NWZ3) | 100%
AKT3 (Homo sapiens, UniProt Q9Y243) | 101%

Set 4
Structure (SMILES): COc1ccc2c(O[C@@H]3C[C@H]4C(=O)N[C@]5(C(=O)O)CC5/C=C\CCCCC[C@H](NC(=O)OC5CCCC5)C(=O)N4C3)cc(-c3csc(NC(=O)C(C)C)n3)nc2c1C (some centres unmarked)
Read-out: cell-free assay
Technique: competition with immobilised ligand
Tested at: 1 µM
target | remaining binding [%]
Ribosomal protein S6 kinase alpha-1, N-terminal kinase domain (RPS6KA1, Homo sapiens, UniProt Q15418) | 74
ULK3 (Homo sapiens, UniProt Q6PHR2) | 93
NEK9 (Homo sapiens, UniProt Q8TD19) | 100
GRK3 (Homo sapiens, UniProt P35626) | 99
RPS6KB1 (Homo sapiens, UniProt P23443) | 93
SIK3 (Homo sapiens, UniProt Q9Y2K2) | 97
AXL (Homo sapiens, UniProt P30530) | 97
MAP3K10 (Homo sapiens, UniProt Q02779) | 93
PIM2 (Homo sapiens, UniProt Q9P1W9) | 100
MAPK15 (Homo sapiens, UniProt Q8TD08) | 100
CAMKK1 (Homo sapiens, UniProt Q8N5S9) | 100
Myosin-IIIa (MYO3A, Homo sapiens, UniProt Q8NEV4) | 100
Cyclin-dependent kinase 4, with cyclin D1 (CDK4, Homo sapiens, UniProt P11802) | 74
PAK6 (Homo sapiens, UniProt Q9NQU5) | 100
WNK2 (Homo sapiens, UniProt Q9Y3S1) | 87

Excerpt of the above (set 4):
target | remaining binding [%]
PAK6 (Homo sapiens, UniProt Q9NQU5) | 100
CAMKK1 (Homo sapiens, UniProt Q8N5S9) | 100
Cyclin-dependent kinase 4, with cyclin D1 (CDK4, Homo sapiens, UniProt P11802) | 74
SIK3 (Homo sapiens, UniProt Q9Y2K2) | 97
Ribosomal protein S6 kinase alpha-1, N-terminal kinase domain (RPS6KA1, Homo sapiens, UniProt Q15418) | 74
AXL (Homo sapiens, UniProt P30530) | 97
ULK3 (Homo sapiens, UniProt Q6PHR2) | 93
NEK9 (Homo sapiens, UniProt Q8TD19) | 100
